Experimental data gathered from unrelated publications.
Compare with care: the assays were run in different laboratories. ± marks the error that the study gave. The star is where a group is joined.
OPRK1: Kappa-type opioid receptor (OPRK1, Homo sapiens, UniProt P41145)
IDO1: Indoleamine 2,3-dioxygenase 1 (IDO1, Homo sapiens, UniProt P14902)
Kelch domain-containing protein 2: Kelch domain-containing protein 2 (UniProt Q9Y2U9)
PIM1: Serine/threonine-protein kinase pim-1 (PIM1, Homo sapiens, UniProt P11309)
CNR2: Cannabinoid receptor 2 (CNR2, Homo sapiens, UniProt P34972)
ESR2: Estrogen receptor beta (ESR2, Homo sapiens, UniProt Q92731)
ESR1: Estrogen receptor (ESR1, Homo sapiens, UniProt P03372)

NWFDGTTTLWHR
binding titer (HIV-1 neutralising antibody 4E10; phage binding, M13 phage ELISA; peptide; concentration not given; lower = stronger binding): 4.3e+07 M13/mL

GGNWTT
apparent kcat (UDP-glucose:protein N-beta-glucosyltransferase (Actinobacillus pleuropneumoniae serotype 5b, UniProt A3N2T3, D215R/Q469A); substrate; peptide; 15 min, pH 8.0, 37 °C, D215R mutant, with: UDP-Glc 100 mM): 0.27 ± 0.02 s⁻¹

COc1ccccc1Oc1ccc(C(=O)N[C@H](CN2CCN(c3cccc(O)c3)[C@@H](C)C2)C(C)C)cc1
Ke (OPRK1; antagonist; CHO; with: U69593): 5.6 ± 1.41 nM

NS(=O)(=O)OC[C@@H]1C[C@@H](n2ccc3c(N[C@H]4CCc5ccccc54)ncnc32)C[C@@H]1O
IDO1 degradation (IDO1; inhibitor, western blot; HeLa; 1 µM, 2 h pretreatment, then 24 h, with: IFN-γ 5 ng/mL plus degrader 5 µM): inhibited

glycine
efflux of [3H]-gabapentin (SLC7A5 (Homo sapiens, UniProt Q01650); substrate, trans-stimulation; HEK293 expressing human LAT1; 200 µM, 3 min; relative to: L-phenylalanine): 29%

CC(C)[C@@H](CN1CCN(c2cccc(O)c2)[C@@H](C)C1)NC(=O)c1ccc(Oc2ccccc2)cc1
Ke (OPRK1; antagonist; CHO; with: U69593): 0.85 ± 0.35 nM

C[C@H](C(=O)NCCc1ccc(O)cc1)c1cccc(C(=O)c2ccccc2)c1
luciferase inhibition (Luciferin 4-monooxygenase (Photinus pyralis, UniProt P08659); enzyme activity, counter-; C3H10T1/2 cell lysate; concentration not given): no effect

CC12CC3CC(C)(C1)CC(N)(C3)C2
current recovery after washout (Glutamate NMDA receptor; Grin1/Grin2a (Grin1/Grin2a, Rattus norvegicus, UniProt P35439+Q00959); NMDA current unblock, whole-cell patch clamp; tsA201 cells; 10 µM, holding potential -60 mV, with: 100 µM NMDA plus 10 µM glycine): 94.2 ± 2.1%

VFMQPASEGTGIIAGGA
fraction of protein bound (Kelch domain-containing protein 2; native mass spectrometry; peptide, 200 mM ammonium acetate; 20 µM Kelch domain-containing protein 2, pH 7; relative to: total Kelch domain-containing protein 2 signal): 0.5%

O=c1[nH]c(=O)n([C@@H]2O[C@H](COP(=O)(O)O)[C@@H](O)[C@H]2O)cc1F
rate constant ratio (Orotidine 5'-phosphate decarboxylase (Saccharomyces cerevisiae S288c, UniProt P03962, A160S/C155S/N267D/S2H); C6 deuterium exchange; basic enzyme form, with: saturating enzyme-bound substrate; relative to: compound over UMP): 3400 fold

Oc1ccccc1-c1cc(Cl)c(Cl)c(Cl)c1Cl
detection limit (Aequorin-1 (Aequorea victoria, UniProt P07164, C152S/C159S/C187S); aequorin bioluminescence, inhibitor; 2 h, with: coelenterazine): 0.34 µM

IDVRVPEQYQQEHVQGA
fraction of protein bound (Kelch domain-containing protein 2; native mass spectrometry; peptide, 200 mM ammonium acetate; 20 µM Kelch domain-containing protein 2, pH 7; relative to: total Kelch domain-containing protein 2 signal): 0.8%

AYRHPTGMYY
kcat/Km (PIM1; substrate, coupled enzyme; peptide; pH 7.4, room temperature, with: 1 mM ATP, 20 mM MgCl2): 960 M⁻¹ s⁻¹

C[C@H](NC(=O)[C@H](Cc1ccccc1)NC(=O)[C@H](Cc1ccc(O)cc1)NC(=O)[C@H](CCC(=O)O)NC(=O)[C@H](CCCCN)NC(=O)[C@H](CCC(N)=O)NC(=O)[C@H](CC(N)=O)NC(=O)[C@H](CCC(=O)O)NS(=O)(=O)c1cccc2c(N(C)C)cccc12)C(=O)O
binding affinity fold change (Rho guanine nucleotide exchange factor TIAM1, PDZ domain (TIAM1, Homo sapiens, UniProt Q13009); fluorescence anisotropy; concentration not given, dansylated peptide; relative to: model peptide Kd over peptide Kd): 1.7

C1=C(/c2cncnc2)CCCNCC/1
efficacy (Chrnb2/Chrna6 (Rattus norvegicus, UniProt P12390+P43143, L273S/L280S/L348M/R364A/R365A/R367A); ion current, agonist; concentration not given, rat receptor, unit not given; relative to: acetylcholine maximum current): 0.59 ± 0.04

c1ccc([C@@H]2CO2)cc1
apparent Kd (Epoxide hydrolase 1 (Solanum tuberosum, UniProt Q41415); substrate, tryptophan fluorescence; (R)-enantiomer): 5800 ± 2000 µM

AWSHPQFEKGGGSGGG
fraction of protein bound (Kelch domain-containing protein 2; native mass spectrometry; peptide, 200 mM ammonium acetate; 20 µM Kelch domain-containing protein 2, pH 7; relative to: total Kelch domain-containing protein 2 signal): 0.5%

CC(C)(NC(=O)c1nn(CCCCC#N)c2ccccc12)c1cccc(C(N)=O)c1
Emax (CNR2; calcium mobilization, agonist; CHO-K1 expressing Gαq16; relative to: CP55,940 maximum): 10 ± 3%

SVSVGMKPSPRP
binding titer (HIV-1 neutralising antibody 4E10; phage binding, M13 phage ELISA; peptide; concentration not given; lower = stronger binding): 4.3e+07 M13/mL

Nc1ncnc2c1ncn2[C@H]1C[C@H](O)[C@@H](COP(=O)(O)OP(=O)(O)OP(=O)(O)O)O1
fluorescence ratio (matB (Rhodopseudomonas palustris, UniProt Q6ND88, C106A/K488A/Q457C/R286C); nucleotide binding; 0.5 µM protein, pH 7.0, 20 °C, 10 mM MgCl2; relative to: saturating ligand over no ligand): 3.8 ± 0.2

Nc1nnc(S)s1
remaining activity (Peptide deformylase (def, Escherichia coli, UniProt P0A6K3); 500 µM, over 2 days, stock in DMSO; relative to: control): 94%

Cc1cc(O)ccc1-c1cc(Br)c(-c2ccc(O)cc2C)[se]1
efficacy (ESR2; antagonist; HEK293T; highest tested concentration, 24 h, with: estradiol 10 nM; relative to: estradiol alone): 25 ± 8%

CCCCN1[C@@H]2CC[C@H]1CC(OC(c1ccc(F)cc1)c1ccc(F)cc1)C2 (some centres unmarked)
affinity loss (SLC6A3 (Homo sapiens, UniProt Q01959, A479V/A480V); [3H]CFT competition; COS-7 transfected; A479V-A480V mutant; relative to: mutant over wild type): ~10 fold

Oc1ccc(-c2cc(Br)c(-c3ccc(O)c(Cl)c3)[se]2)cc1Cl
efficacy (ESR1; antagonist; HEK293T; highest tested concentration, with: estradiol 10 nM; relative to: estradiol alone): 19 ± 2%

RYRHPTRMYY
kcat (PIM1; substrate, coupled enzyme; peptide; pH 7.4, room temperature, with: 1 mM ATP, 20 mM MgCl2): 7.5 ± 0.1 s⁻¹

O=Cc1ccc(COC(=O)c2ccccc2)o1
P50 change (Hemoglobin subunit alpha, with sickle beta chain (HBA1, Homo sapiens, UniProt P69905); oxygen affinity; sickle red cell lysate; 2000 µM; relative to: untreated): 38.9 ± 11.9%

C[C@H](CCC(=O)NCC(=O)O)[C@H]1CC[C@H]2[C@@H]3CC[C@@H]4C[C@H](O)CC[C@]4(C)[C@H]3CC[C@]12C
Schild slope (Ephrin type-A receptor 2 (Mus musculus, UniProt Q03145); ELISA, ephrin-A1-Fc displacement): 1.35

C[C@](O)(Cn1ccc2cc(F)ccc21)C(=O)Nc1ccc(C#N)c(C(F)(F)F)c1
IC50? (NR3C2 (Homo sapiens, UniProt P08235); transactivation, antagonist; HEK293; with: aldosterone): ~10 µM

Ac-QDEVD-pNA (N-acetyl, C-pNA; pNA = O=[N+]([O-])c1ccc(N*)cc1)
kcat/Km (Caspase-3 (CASP3, Homo sapiens, UniProt P42574); substrate hydrolysis, substrate, colorimetric; pH 7.5): 18300 ± 1670 M⁻¹ s⁻¹

CC1N=C(c2ccccc2F)c2cc(Nc3ccccc3)ccc2NC1=O (centres unmarked)
inhibition (ADRA2A (Homo sapiens, UniProt P08913); ligand displacement, radioligand; 10 µM): 66%

Oc1ccc(-c2ccc(-c3ccc(O)cc3)[se]2)cc1
efficacy (ESR1; antagonist; HEK293T; highest tested concentration, with: estradiol 10 nM; relative to: estradiol alone): 44 ± 10%

RYRHPTPMYY
kcat/Km (PIM1; substrate, coupled enzyme; peptide; pH 7.4, room temperature, with: 1 mM ATP, 20 mM MgCl2): 14000 M⁻¹ s⁻¹

O[C@H](CN1CC[C@H](CCOC(c2ccccc2)c2ccccc2)[C@@H](O)C1)c1ccc(F)cc1
Ki (Transporter (Slc6a2, Rattus norvegicus, UniProt Q63380); noradrenaline uptake, inhibitor; rat hippocampus; with: [3H]noradrenaline): 0.0206 µM

N[C@@H](Cc1c[nH]c2ccccc12)C(=O)O
kon (IDO1; stopped-flow absorption; pH 7.4, 20 °C, ligand-free ferric enzyme): 5500 M⁻¹ s⁻¹

Oc1ccc(F)c(-c2ccc(-c3cc(O)ccc3F)[se]2)c1
efficacy (ESR1; antagonist; HEK293T; highest tested concentration, with: estradiol 10 nM; relative to: estradiol alone): 75 ± 7%

NC(=O)CN1CCC[C@H](CNC(=O)c2nn(Cc3ccc(F)cc3)c3ccccc23)C1
Emax (CNR2; calcium mobilization, agonist; CHO-K1 expressing Gαq16; relative to: CP55,940 maximum): 36 ± 5%

Cc1cc(-c2c[se]cc2-c2ccc(O)c(C)c2)ccc1O
efficacy (ESR2; antagonist; HEK293T; highest tested concentration, 24 h, with: estradiol 10 nM; relative to: estradiol alone): 50 ± 5%

SDDFFVGRVGG
fraction of protein bound (Kelch domain-containing protein 2; native mass spectrometry; peptide, 200 mM ammonium acetate; 20 µM Kelch domain-containing protein 2, pH 7; relative to: total Kelch domain-containing protein 2 signal): 0.8%

Excerpt of the above:
NS(=O)(=O)OC[C@@H]1C[C@@H](n2ccc3c(N[C@H]4CCc5ccccc54)ncnc32)C[C@@H]1O
IDO1 degradation (IDO1; inhibitor, western blot; HeLa; 1 µM, 2 h pretreatment, then 24 h, with: IFN-γ 5 ng/mL plus degrader 5 µM): inhibited

glycine
efflux of [3H]-gabapentin (SLC7A5 (Homo sapiens, UniProt Q01650); substrate, trans-stimulation; HEK293 expressing human LAT1; 200 µM, 3 min; relative to: L-phenylalanine): 29%
